# Assay results from different studies.
# ± marks the error that the study gave.
# C3AR1: C3a anaphylatoxin chemotactic receptor (C3AR1, Homo sapiens, UniProt Q16581)
# Chain of UniProt Q16581 (whole entry, looked up): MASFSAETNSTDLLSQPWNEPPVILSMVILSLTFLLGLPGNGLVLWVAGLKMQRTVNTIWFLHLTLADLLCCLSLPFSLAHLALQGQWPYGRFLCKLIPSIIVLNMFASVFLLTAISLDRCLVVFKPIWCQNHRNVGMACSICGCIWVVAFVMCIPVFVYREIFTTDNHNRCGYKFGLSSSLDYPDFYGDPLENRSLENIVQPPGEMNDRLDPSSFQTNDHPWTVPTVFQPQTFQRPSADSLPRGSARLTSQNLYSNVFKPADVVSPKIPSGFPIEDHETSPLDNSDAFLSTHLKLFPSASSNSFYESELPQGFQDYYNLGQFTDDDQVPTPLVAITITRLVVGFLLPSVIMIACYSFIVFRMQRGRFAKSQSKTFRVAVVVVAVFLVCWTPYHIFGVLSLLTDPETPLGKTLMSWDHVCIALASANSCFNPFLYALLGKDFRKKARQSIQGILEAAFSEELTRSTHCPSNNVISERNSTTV
# ESR2: Estrogen receptor beta (ESR2, Homo sapiens, UniProt Q92731)
# Chain of UniProt Q92731 (whole entry, looked up): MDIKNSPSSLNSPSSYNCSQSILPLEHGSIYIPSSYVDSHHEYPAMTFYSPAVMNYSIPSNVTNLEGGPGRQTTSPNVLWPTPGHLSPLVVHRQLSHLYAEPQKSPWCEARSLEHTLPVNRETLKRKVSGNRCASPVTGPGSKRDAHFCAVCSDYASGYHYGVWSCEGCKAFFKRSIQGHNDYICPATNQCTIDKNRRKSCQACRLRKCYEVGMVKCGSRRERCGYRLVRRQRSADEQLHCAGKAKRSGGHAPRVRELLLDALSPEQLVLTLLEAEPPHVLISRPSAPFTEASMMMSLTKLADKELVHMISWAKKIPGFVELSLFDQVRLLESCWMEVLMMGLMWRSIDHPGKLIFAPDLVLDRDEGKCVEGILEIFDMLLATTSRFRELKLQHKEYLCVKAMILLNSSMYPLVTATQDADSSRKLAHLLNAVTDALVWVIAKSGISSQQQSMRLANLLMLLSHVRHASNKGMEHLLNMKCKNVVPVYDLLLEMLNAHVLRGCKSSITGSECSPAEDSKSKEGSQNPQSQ
# ADORA1: Adenosine receptor A1 (ADORA1, Homo sapiens, UniProt P30542)
# Chain of UniProt P30542 (whole entry, looked up): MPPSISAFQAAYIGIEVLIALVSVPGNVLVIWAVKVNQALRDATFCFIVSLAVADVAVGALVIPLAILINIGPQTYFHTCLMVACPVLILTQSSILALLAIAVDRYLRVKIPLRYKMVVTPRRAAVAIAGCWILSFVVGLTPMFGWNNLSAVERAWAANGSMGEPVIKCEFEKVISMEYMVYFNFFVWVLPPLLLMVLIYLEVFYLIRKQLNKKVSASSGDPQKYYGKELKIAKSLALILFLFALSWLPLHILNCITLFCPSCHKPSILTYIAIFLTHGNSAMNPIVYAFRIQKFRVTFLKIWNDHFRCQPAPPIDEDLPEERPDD
# ESR1: Estrogen receptor (ESR1, Homo sapiens, UniProt P03372)
# Chain of UniProt P41968 (whole entry, unmodified, looked up): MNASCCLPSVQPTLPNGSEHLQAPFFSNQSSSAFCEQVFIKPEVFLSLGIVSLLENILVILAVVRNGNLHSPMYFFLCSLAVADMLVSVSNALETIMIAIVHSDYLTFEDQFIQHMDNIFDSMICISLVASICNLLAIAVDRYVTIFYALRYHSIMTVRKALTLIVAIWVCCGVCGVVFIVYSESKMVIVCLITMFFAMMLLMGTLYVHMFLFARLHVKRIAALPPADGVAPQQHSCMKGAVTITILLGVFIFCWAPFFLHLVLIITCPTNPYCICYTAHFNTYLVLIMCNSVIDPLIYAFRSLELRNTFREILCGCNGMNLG
# Chain of UniProt P03372 (whole entry, looked up): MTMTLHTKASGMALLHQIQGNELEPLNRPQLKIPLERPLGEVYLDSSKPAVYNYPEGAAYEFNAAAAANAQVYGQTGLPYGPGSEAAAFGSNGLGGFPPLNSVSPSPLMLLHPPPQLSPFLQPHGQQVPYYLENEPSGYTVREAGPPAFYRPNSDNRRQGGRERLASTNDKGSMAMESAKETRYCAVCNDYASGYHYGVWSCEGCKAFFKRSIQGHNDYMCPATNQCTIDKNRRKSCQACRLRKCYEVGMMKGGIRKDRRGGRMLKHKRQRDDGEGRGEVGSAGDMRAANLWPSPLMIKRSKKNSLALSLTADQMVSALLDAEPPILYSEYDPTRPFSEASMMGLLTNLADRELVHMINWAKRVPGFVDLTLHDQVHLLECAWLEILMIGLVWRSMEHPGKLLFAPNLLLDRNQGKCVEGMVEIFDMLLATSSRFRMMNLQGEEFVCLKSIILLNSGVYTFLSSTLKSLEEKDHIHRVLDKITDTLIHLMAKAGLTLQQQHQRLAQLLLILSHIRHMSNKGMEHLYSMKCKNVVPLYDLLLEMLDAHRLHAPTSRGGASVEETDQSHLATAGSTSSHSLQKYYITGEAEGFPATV
# Chain of UniProt Q16602 (whole entry, looked up): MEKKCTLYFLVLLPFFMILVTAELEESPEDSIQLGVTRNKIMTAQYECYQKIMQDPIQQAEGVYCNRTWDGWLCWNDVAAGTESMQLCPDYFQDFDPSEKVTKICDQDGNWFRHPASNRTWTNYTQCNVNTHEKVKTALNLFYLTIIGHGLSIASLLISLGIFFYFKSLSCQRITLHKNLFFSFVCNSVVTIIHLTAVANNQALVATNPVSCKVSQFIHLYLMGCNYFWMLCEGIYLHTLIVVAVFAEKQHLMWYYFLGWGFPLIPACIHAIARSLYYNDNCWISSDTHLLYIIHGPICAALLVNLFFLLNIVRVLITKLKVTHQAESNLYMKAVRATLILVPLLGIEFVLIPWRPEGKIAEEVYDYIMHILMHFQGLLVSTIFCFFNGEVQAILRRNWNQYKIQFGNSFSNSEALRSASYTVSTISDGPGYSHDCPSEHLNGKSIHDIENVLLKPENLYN
# Chain of UniProt O60894 (whole entry, looked up): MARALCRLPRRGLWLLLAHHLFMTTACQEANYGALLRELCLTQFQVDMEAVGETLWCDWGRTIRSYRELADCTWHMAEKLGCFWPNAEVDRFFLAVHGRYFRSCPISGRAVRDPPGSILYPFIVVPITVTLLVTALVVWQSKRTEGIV
# Chain of UniProt O43741 (whole entry, looked up): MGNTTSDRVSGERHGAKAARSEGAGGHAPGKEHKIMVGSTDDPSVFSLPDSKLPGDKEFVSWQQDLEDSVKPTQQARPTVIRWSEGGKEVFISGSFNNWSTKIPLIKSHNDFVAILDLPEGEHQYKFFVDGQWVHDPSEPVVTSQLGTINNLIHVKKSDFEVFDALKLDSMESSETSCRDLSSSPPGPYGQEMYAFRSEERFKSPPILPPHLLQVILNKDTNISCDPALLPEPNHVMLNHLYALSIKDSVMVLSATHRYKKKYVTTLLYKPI
# Chain of UniProt P17948 (whole entry, looked up): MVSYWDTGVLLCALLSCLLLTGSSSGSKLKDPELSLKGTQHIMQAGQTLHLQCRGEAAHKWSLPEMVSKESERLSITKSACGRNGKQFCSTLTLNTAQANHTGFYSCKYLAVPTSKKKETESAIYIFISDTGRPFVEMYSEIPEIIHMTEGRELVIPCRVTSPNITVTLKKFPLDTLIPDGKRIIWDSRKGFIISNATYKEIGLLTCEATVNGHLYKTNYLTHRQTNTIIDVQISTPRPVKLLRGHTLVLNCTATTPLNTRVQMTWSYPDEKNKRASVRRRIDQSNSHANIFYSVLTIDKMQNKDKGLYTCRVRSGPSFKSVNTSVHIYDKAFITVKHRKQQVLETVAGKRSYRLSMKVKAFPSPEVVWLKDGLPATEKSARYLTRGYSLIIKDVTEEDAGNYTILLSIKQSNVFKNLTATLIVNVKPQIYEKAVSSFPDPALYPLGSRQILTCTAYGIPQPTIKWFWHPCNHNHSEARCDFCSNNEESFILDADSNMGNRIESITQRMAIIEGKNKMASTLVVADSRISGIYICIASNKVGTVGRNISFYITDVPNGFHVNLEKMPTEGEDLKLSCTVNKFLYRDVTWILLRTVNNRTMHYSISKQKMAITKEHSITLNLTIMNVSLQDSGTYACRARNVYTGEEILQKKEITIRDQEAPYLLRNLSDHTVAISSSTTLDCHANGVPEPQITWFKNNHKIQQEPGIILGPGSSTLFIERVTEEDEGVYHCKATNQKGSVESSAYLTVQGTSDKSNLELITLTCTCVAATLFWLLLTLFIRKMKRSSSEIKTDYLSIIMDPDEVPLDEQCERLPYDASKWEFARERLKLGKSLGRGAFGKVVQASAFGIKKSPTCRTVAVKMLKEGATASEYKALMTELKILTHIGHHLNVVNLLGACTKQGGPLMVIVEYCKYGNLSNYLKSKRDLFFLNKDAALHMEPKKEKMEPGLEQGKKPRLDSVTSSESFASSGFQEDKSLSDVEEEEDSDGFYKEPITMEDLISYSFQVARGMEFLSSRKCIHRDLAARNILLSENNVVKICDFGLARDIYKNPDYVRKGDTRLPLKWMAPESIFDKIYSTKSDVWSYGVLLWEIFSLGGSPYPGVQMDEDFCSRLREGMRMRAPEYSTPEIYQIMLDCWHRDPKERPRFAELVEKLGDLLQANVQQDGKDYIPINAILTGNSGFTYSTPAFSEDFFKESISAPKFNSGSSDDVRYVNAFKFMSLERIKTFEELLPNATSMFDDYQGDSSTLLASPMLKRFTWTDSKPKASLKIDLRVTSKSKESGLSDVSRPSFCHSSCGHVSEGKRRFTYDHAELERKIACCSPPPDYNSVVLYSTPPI
# Chain of UniProt P19793 (whole entry, looked up): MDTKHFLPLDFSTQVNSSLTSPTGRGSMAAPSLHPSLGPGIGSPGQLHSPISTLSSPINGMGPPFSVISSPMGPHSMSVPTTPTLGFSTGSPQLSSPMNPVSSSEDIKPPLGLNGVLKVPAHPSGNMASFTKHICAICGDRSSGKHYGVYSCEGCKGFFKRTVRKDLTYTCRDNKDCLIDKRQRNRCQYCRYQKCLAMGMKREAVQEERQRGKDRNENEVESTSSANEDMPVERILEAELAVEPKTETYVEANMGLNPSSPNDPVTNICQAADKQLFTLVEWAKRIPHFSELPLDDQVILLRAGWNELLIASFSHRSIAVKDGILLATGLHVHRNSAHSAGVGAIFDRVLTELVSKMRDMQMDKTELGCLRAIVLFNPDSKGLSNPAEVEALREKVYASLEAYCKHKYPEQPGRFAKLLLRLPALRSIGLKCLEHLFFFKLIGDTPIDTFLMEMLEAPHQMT
Structure (SMILES),target,test,system,setting,EC50
CCCC[C@H](NC(=O)[C@H](CO)NC(=O)[C@H](Cc1ccc(O)cc1)NC(=O)[C@H](CO)NC(C)=O)C(=O)N[C@@H](CCC(=O)O)C(=O)N[C@@H](Cc1c[nH]cn1)C(=O)N[C@H](Cc1ccc2ccccc2c1)C(=O)N[C@@H](CCCNC(=N)N)C(=O)N[C@@H](Cc1c[nH]c2ccccc12)C(=O)NCC(=O)N[C@@H](CCCCN)C(=O)N1CCC[C@H]1C(=O)N[C@H](C(=O)NCC(=O)N[C@@H](CCCCN)C(=O)N[C@@H](CCCCN)C(=O)N[C@@H](CCCNC(=N)N)C(N)=O)C(C)C,"MC3R (Homo sapiens, UniProt P41968, L128M)","cAMP production, agonist",,mutant receptor,78 ± 14 nM
COc1ccc(C(=O)Nc2c(-c3cccs3)nc3ccccn23)cc1,"Gamma-aminobutyric acid receptor subunit delta/Gamma-aminobutyric acid receptor subunit beta-2/Gamma-aminobutyric acid receptor subunit alpha-6 (Homo sapiens, UniProt O14764+P47870+Q16445)","positive allosteric modulator, FLIPR membrane potential",cells expressing α6β2δ GABA-A receptor,,2250 nM
CC(C)C[C@@H]1NC(=O)[C@H](CCCNC(=N)N)NC(=O)[C@H](C(C)C)NC(=O)[C@H](Cc2c[nH]cn2)NC(=O)[C@H](Cc2c[nH]cn2)NC(=O)CNC(=O)[C@H](CCCCN)NC(=O)[C@H](CC(C)C)NC(=O)[C@H](CC(N)=O)NC(=O)[C@H]([C@@H](C)O)NC(=O)[C@H](CO)NC(=O)[C@H](CC(N)=O)NC(=O)[C@@H]2CCCN2C(=O)[C@H](CO)NC(=O)[C@@H]2CCCN2C(=O)[C@H](C(C)C)NC(=O)[C@H](CCCNC(=N)N)NC(=O)[C@H](Cc2c[nH]cn2)NC(=O)[C@@H]2CSSC[C@H](NC1=O)C(=O)N[C@@H](CCCCN)C(=O)N1CCC[C@H]1C(=O)N[C@H](C(=O)N[C@@H](CCCCN)C(=O)N[C@@H](CC(C)C)C(=O)N[C@@H](CCC(=O)O)C(=O)N1CCC[C@H]1C(=O)N[C@@H](CCC(=O)O)C(=O)N1CCC[C@H]1C(=O)N[C@@H](CCCNC(=N)N)C(=O)N[C@@H](CC(C)C)C(=O)N[C@@H](Cc1c[nH]c3ccccc13)C(=O)N[C@H](C(=O)N[C@H](C(=O)N1CCC[C@H]1C(=O)NCC(=O)N[C@@H](C)C(=O)N[C@@H](CC(C)C)C(=O)N1CCC[C@H]1C(=O)N[C@@H](CCC(N)=O)C(=O)N[C@H](C(=O)O)C(C)C)C(C)C)C(C)C)CSSC[C@H](NC(=O)[C@H](CC(C)C)NC(=O)[C@H](CCCNC(=N)N)NC(=O)[C@@H](NC(=O)[C@H](CCCNC(=N)N)NC(=O)[C@H](CCCNC(=N)N)NC(=O)CNC(=O)[C@H](CO)NC(=O)[C@H](Cc1c[nH]c3ccccc13)NC(=O)[C@H](C)NC(=O)[C@H](CCCCN)NC(=O)[C@H](C)NC(=O)[C@@H]1CCCN1C(=O)[C@H](CCCNC(=N)N)NC(=O)[C@H](CCCNC(=N)N)NC(=O)[C@@H](N)CCCCN)[C@@H](C)O)C(=O)N2,"G-protein coupled receptor 15, with GoA (Homo sapiens, UniProt P49685)","GoA activation, agonist, BRET",HEK293A transfected GPR15,,52.5 nM
CCCC[C@H](NC=O)C(=O)N[C@@H](CC(C)C)C(=O)N[C@@H](Cc1ccccc1)C(=O)O,"FPR1 (Homo sapiens, UniProt P21462, N192K)","receptor surface downregulation, agonist",CHO cells,"1 h, 37 °C",75 ± 5 nM
CC(C)C[C@H](NC(=O)CNC(=O)[C@H](CC(C)C)NC(=O)[C@H](CCCCN)NC(=O)[C@H](CO)NC(=O)[C@H](C)NC(=O)[C@H](CCCN=C(N)N)NC(=O)[C@H](Cc1ccc(O)cc1)NC(=O)[C@H](CCCCN)NC(=O)[C@H](CCCCN)NC(=O)CNC(=O)[C@H](Cc1c[nH]c2ccccc12)NC(=O)[C@@H](N)Cc1c[nH]c2ccccc12)C(=O)N[C@@H](C)C(=O)N[C@@H](CCCN=C(N)N)C(=O)O,C3AR1,"cAMP, agonist, luciferase",,,0.089 nM
COc1ccc(SCC(=O)c2ccc(O)cc2O)cc1,ESR2,"coactivator recruitment, agonist",,,3740 nM
CCNC(=O)[C@H]1O[C@@H](n2cnc3c(NCCCCNC(=O)CCCCCNC(=O)COc4ccc(/C=C/C5=[N+]6C(=Cc7ccc(-c8cccs8)n7[B-]6(F)F)C=C5)cc4)ncnc32)[C@H](O)[C@@H]1O,ADORA1,"CRE-SPAP reporter gene, agonist",CHO-A1,"Gs enhancement, together with: forskolin, pertussis toxin 100 ng/mL overnight",398 nM
O=S(=O)(Oc1ccc2ccccc2c1)C1CC2OC1C(c1ccc(O)cc1)=C2c1ccc(O)cc1 (racemic),ESR1,"reporter gene, agonist, ERE luciferase",HepG2 transfected with ERα,24 h,> 10000 nM
CSCC[C@H](NC(=O)[C@H](CCCNC(=N)N)NC(=O)[C@H](CCCCN)NC(=O)[C@@H](N)Cc1c[nH]c2ccccc12)C(=O)N[C@H](C(=O)N[C@H](CCSC)C(N)=O)C(C)C,"FPR1 (Homo sapiens, UniProt P21462)","binding, flow cytometry competition",U-937,"4 °C, together with: 5 nM WK(FL)YMVm probe",no binding
COc1ccc(C(=O)[C@H](C)OC(=O)c2cccc(O)c2)cc1,ESR2,"coactivator recruitment, agonist",,,3490 nM
COCCOc1ccc2cc1S(=O)(=O)NCCCNc1nc(ncc1-c1ccc(F)c(OC)c1)N2,"FLT1 (Homo sapiens, UniProt P17948)","target engagement in cells, BRET",,,23000 nM
O=S(=O)(Oc1cccc(F)c1)C1CC2OC1C(c1ccc(O)cc1)=C2c1ccc(O)cc1 (racemic),ESR1,"reporter gene, agonist, luciferase",,,140 nM
CSCC[C@H](NC(=O)[C@H](CC(C)C)NC(=O)[C@H](CCC(N)=O)NC(=O)[C@H](Cc1c[nH]c2ccccc12)NC(=O)[C@H](CC(C)C)NC(=O)[C@H](CCCNC(=N)N)NC(=O)[C@H](Cc1c[nH]cn1)NC(=O)[C@H](CO)NC(=O)[C@H](CC(C)C)NC(=O)[C@H](CC(N)=O)NC(=O)[C@H](CCC(N)=O)NC(=O)[C@@H](NC(=O)[C@H](CCC(N)=O)NC(=O)[C@@H]1CSSC[C@H](NC(=O)CNC(=O)[C@@H](N)C(C)C)C(=O)N[C@@H](C(C)C)C(=O)N[C@@H](CC(C)C)C(=O)NCC(=O)N[C@@H]([C@@H](C)O)C(=O)N1)C(C)C)C(=O)NCC(=O)N1CCC[C@H]1C(=O)N[C@@H](C)C(=O)NCC(=O)N[C@@H](CCCCN)C(=O)N[C@@H](CCC(N)=O)C(=O)N[C@@H](CC(=O)O)C(=O)N[C@@H](CO)C(=O)N[C@@H](C)C(=O)N1CCC[C@H]1C(=O)N[C@H](C(=O)N[C@@H](CC(=O)O)C(=O)N1CCC[C@H]1C(=O)N[C@@H](CO)C(=O)N[C@@H](CO)C(=O)N1CCC[C@H]1C(=O)N[C@@H](Cc1c[nH]cn1)C(=O)N[C@@H](CO)C(=O)N[C@@H](Cc1ccc(O)cc1)C(N)=O)C(C)C,"Calcitonin-gene-related peptide receptor, CALCRL/RAMP1 (Homo sapiens, UniProt O60894+Q16602)","cAMP, agonist, CAMYEL BRET",COS-7,37 °C,2.88 nM
CC(C)C[C@H](NC(=O)[C@H](C)NC(=O)[C@H](CO)NC(=O)[C@@H]1CCCN1C(=O)[C@@H]1CCCN1C(=O)[C@H](CCC(N)=O)NC(=O)[C@H](CC(C)C)NC(=O)[C@@H](N)[C@@H](C)O)C(=O)N[C@@H](CCCNC(=N)N)C(=O)N[C@@H](CCCNC(=N)N)C(=O)N[C@@H](CCCNC(=N)N)C(=O)N[C@@H](Cc1c[nH]cn1)C(=O)N[C@@H](Cc1ccc(O)cc1)C(=O)N[C@@H](Cc1c[nH]cn1)C(=O)N[C@@H](Cc1c[nH]cn1)C(=O)N[C@@H](C)C(=O)N[C@@H](CC(C)C)C(=O)N1CCC[C@H]1C(=O)N1CCC[C@H]1C(=O)N[C@@H](CO)C(=O)N[C@@H](CCCNC(=N)N)C(=O)O,C3AR1,"β-arrestin2 recruitment, agonist, BRET",,"60 min, 37 °C, together with: GRK2 co-expression",3180 nM
CC(C)C[C@H](NC(=O)[C@@H](N)[C@@H](C)O)C(=O)N[C@@H](CCC(N)=O)C(=O)N1CCC[C@H]1C(=O)N1CCC[C@H]1C(=O)N[C@@H](C)C(=O)N[C@@H](CO)C(=O)N[C@@H](CO)C(=O)N[C@@H](CCCNC(=N)N)C(=O)N[C@@H](CCCNC(=N)N)C(=O)N[C@@H](CCCNC(=N)N)C(=O)N[C@@H](Cc1c[nH]cn1)C(=O)N[C@@H](Cc1ccccc1)C(=O)N[C@@H](Cc1c[nH]cn1)C(=O)N[C@@H](Cc1c[nH]cn1)C(=O)N[C@@H](C)C(=O)N[C@@H](CC(C)C)C(=O)N1CCC[C@H]1C(=O)N1CCC[C@H]1C(=O)N[C@@H](C)C(=O)N[C@@H](CCCNC(=N)N)C(=O)O,C3AR1,"β-arrestin recruitment, agonist",,,2300 nM
N=C(N)NCCC[C@H](NC(=O)[C@H](CC(=O)O)NC(=O)[C@@H]1CSCCC(=O)NCC(=O)N[C@@H](Cc2c[nH]cn2)C(=O)N[C@H](Cc2ccccc2)C(=O)N[C@@H](CCCNC(=N)N)C(=O)N[C@@H](Cc2c[nH]c3ccccc23)C(=O)N1)C(=O)N[C@@H](Cc1ccccc1)C(=O)NCC(N)=O,"MC3R (Homo sapiens, UniProt P41968)","cAMP, agonist",,,170 nM
CC(C)C[C@H](NC(=O)[C@@H](N)[C@@H](C)O)C(=O)N[C@@H](CCC(N)=O)C(=O)N1CCC[C@H]1C(=O)N1CCC[C@H]1C(=O)N[C@@H](C)C(=O)N[C@@H](CO)C(=O)N[C@@H](CO)C(=O)N[C@@H](CCCNC(=N)N)C(=O)N[C@@H](CCCNC(=N)N)C(=O)N[C@@H](CCCNC(=N)N)C(=O)N[C@@H](Cc1c[nH]cn1)C(=O)N[C@@H](Cc1ccccc1)C(=O)N[C@@H](Cc1c[nH]cn1)C(=O)N[C@@H](Cc1c[nH]cn1)C(=O)N[C@@H](C)C(=O)N[C@@H](CC(C)C)C(=O)N1CCC[C@H]1C(=O)N1CCC[C@H]1C(=O)N[C@@H](C)C(=O)N[C@@H](CCCNC(=N)N)C(=O)O,C3AR1,"G protein activation, agonist, BRET",,,131 nM
CC/C(=C(\c1ccccc1)c1ccc(OCCN(C)CCCCC(=O)NCCCOc2ccc3[nH]cc(CCNC(C)=O)c3c2)cc1)c1ccccc1,"MTNR1A (Homo sapiens, UniProt P48039)","phosphorylation in cells, agonist, AlphaScreen",,,247 nM
CC(=O)C1=C(C)NC(SCC(=O)c2ccccc2)=C(C#N)C1c1sccc1C (stereo not shown),"NR3C1 (Homo sapiens, UniProt P04150)","binding, competitor, TR-FRET",,,530 ± 50 nM
CCNC(=O)[C@H]1O[C@@H](n2cnc3c(NCCOCCOCCNC(=O)CCCCCNC(=O)COc4ccc(/C=C/C5=[N+]6C(=Cc7ccc(-c8cccs8)n7[B-]6(F)F)C=C5)cc4)ncnc32)[C@H](O)[C@@H]1O,ADORA1,"CRE-SPAP reporter gene, agonist",CHO-A1,"Gs enhancement, together with: forskolin, pertussis toxin 100 ng/mL overnight",1070 nM
Cc1ccc(Oc2nc3cc(-c4ccc5c(ccn5C)c4)c(Cl)cc3[nH]2)cc1C(=O)O,"PRKAB2/PRKAA2 (Homo sapiens, UniProt O43741+P54646)","enzyme activity, activator",,,510 nM
C=CCc1cccc(-c2cc(/C=C/C(=O)O)ccc2O)c1,"Retinoic acid receptor RXR-alpha, homodimer (RXRA, Homo sapiens, UniProt P19793)",,,,31.6 nM
N=C(N)NCCC[C@H](NC(=O)[C@H](Cc1ccccc1)NC(=O)[C@@H](N)CO)C(=O)N[C@@H](CC(N)=O)C(N)=O,"Neuropeptide S receptor (Mus musculus, UniProt Q8BZP8)","cAMP, agonist, TR-FRET",,,800 nM
N#CC(=CC(=O)c1ccccc1)c1ccc(O)cc1,ESR2,"coactivator recruitment, agonist",,,2970 nM
CCNC(=O)[C@H]1O[C@@H](n2cnc3c(NCCCCCNC(=O)CCCCCNC(=O)COc4ccc(/C=C/C5=[N+]6C(=Cc7ccc(-c8cccs8)n7[B-]6(F)F)C=C5)cc4)ncnc32)[C@H](O)[C@@H]1O,ADORA1,"CRE-SPAP reporter gene, agonist",CHO-A1,"Gs enhancement, together with: forskolin",589 nM

# Repeated from above:
Structure (SMILES),target,test,system,setting,EC50
N#CC(=CC(=O)c1ccccc1)c1ccc(O)cc1,ESR2,"coactivator recruitment, agonist",,,2970 nM
CSCC[C@H](NC(=O)[C@H](CCCNC(=N)N)NC(=O)[C@H](CCCCN)NC(=O)[C@@H](N)Cc1c[nH]c2ccccc12)C(=O)N[C@H](C(=O)N[C@H](CCSC)C(N)=O)C(C)C,"FPR1 (Homo sapiens, UniProt P21462)","binding, flow cytometry competition",U-937,"4 °C, together with: 5 nM WK(FL)YMVm probe",no binding
